Measured values gathered from unrelated publications.
Numbered parts are unrelated; each lists some results of a single study.

Set 1
Target: RING finger protein unkempt homolog, zinc fingers 1-6, SBP tag (UNK, Homo sapiens, UniProt Q9C0B0, residues 30-357)
Sequence of UniProt Q9C0B0 (30-357, looked up): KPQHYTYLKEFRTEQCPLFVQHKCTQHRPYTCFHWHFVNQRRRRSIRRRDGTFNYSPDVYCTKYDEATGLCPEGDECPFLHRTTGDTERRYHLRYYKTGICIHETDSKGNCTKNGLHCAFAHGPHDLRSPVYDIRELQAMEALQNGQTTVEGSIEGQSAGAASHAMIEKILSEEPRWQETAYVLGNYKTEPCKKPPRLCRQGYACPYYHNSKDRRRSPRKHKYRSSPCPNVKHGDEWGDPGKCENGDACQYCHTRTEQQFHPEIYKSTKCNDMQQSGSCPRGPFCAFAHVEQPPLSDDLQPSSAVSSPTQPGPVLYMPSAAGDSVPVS
Method: RNA Bind-n-Seq
Form: RNA
Sample: in vitro
Tested at: 100 nM
Setting: RNA with constant flanks, ends assumed
Relative to: input RNA pool
Reading: higher = stronger binding
Endpoint: bound/input enrichment
GGGAGUUCUACAGUCCGACGAUCGGGUUUGGGGCCGAAGGGAGGGAGGGGGCAGGACAGUGUGGAAUCUCCCGGGUGUAUGGGCCGGCCGGGGGCACAGUCCGUUCUAAGUGGGCUUUUAUGCUAAAAGCCUCUGGGGAUAUCCAACAGAGGAUUGAGCAUCA: 0.348 ratio
GGGAGUUCUACAGUCCGACGAUCAGCCGUUUUAAGCUUGUUUGCACAGUUCUUUUUUUCCAUUGGAAAUGGAAUUCAUUGCCUCCGGUCUUUUUAAACCGUGUAUUAUUAUCGUUGGGGCUGGCUCUAUGCUUGAAAACCAGUCAACAGAGGAUUGAGCAUCA: 0.505 ratio
GGGAGUUCUACAGUCCGACGAUCAGAAAAUUUUAACCAAGAAUCUGAAGGCCGAAAUACAGGACCAUGGUUAUCUUCCUCACUCCGAAACCGAUGCACACCUUUGUUCUCCCGAAGGAGGCGAGAGGGAAGAGAUGAAUCUUCCAACAGAGGAUUGAGCAUCA: 0.229 ratio
GGGAGUUCUACAGUCCGACGAUCCCCUCUGAACCCCAUAUCUUCUGUUUCAUAAUGCAGAAGUAUUCUUUUCAAUUAUAUUGUCCGUGGACUUGUUUUAAUUUCCGAGAAACUUUGAGUACAGAUACUGUGAGCUUACAUUGACAACAGAGGAUUGAGCAUCA: 0.645 ratio

Set 2
Target: Eukaryotic initiation factor 4A-I (EIF4A1, Homo sapiens, UniProt P60842, residues 1-406, full length assumed)
Sequence of UniProt P60842 (whole entry, looked up): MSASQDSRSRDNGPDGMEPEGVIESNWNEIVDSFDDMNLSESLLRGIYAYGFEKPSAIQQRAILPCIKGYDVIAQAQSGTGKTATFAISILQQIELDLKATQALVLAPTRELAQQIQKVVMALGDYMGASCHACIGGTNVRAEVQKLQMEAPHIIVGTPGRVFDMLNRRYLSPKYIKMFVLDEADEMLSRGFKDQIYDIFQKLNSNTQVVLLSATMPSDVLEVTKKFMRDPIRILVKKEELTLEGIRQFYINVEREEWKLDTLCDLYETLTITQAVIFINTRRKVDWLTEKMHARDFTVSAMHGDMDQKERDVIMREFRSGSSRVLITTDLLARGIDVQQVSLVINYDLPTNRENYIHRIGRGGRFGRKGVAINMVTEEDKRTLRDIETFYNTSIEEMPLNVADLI
Method: RNA Bind-n-Seq
Form: RNA
Sample: in vitro
Tested at: 15 pmol
Setting: 4-mer, random 30-nt RNA, single round
With: DMSO vehicle, 2 mM AMP-PNP
Relative to: input library
Reading: higher = stronger binding
Endpoint: 4-mer enrichment
ACCA: 2.6 fold
CCCC: 1.7 fold
GGGC: 0.72 fold
CUAA: 0.859 fold
GUGC: 0.879 fold
AUGA: 1.07 fold
GGAU: 0.985 fold
CAAG: 1.26 fold
GCGA: 1.12 fold
CCGC: 1.62 fold
UCAC: 1.05 fold
AUUU: 0.942 fold
AGCG: 1.02 fold
GGGA: 1.08 fold
CCCA: 1.23 fold

Set 3
Target: Interferon regulatory factor 7, full length, phosphomimetic (IRF7, Homo sapiens, UniProt Q92985, residues 1-503, S101K/S471D/S472D/S475D/S476D/S477D/S483D/S484D/S487D)
Method: protein-binding microarray
Form: double-stranded DNA, one strand shown
Sample: in vitro
Tested at: 250 nM
Setting: 60-bp whole probe
With: salmon DNA 0.4 mg/ml
Relative to: random background probes
Reading: higher = stronger binding
Endpoint: log fluorescence
All sequences stand within: GCCTAGCAC … GTCTTGATTCGCTTGACGCTGCTG
Target sequence (chain): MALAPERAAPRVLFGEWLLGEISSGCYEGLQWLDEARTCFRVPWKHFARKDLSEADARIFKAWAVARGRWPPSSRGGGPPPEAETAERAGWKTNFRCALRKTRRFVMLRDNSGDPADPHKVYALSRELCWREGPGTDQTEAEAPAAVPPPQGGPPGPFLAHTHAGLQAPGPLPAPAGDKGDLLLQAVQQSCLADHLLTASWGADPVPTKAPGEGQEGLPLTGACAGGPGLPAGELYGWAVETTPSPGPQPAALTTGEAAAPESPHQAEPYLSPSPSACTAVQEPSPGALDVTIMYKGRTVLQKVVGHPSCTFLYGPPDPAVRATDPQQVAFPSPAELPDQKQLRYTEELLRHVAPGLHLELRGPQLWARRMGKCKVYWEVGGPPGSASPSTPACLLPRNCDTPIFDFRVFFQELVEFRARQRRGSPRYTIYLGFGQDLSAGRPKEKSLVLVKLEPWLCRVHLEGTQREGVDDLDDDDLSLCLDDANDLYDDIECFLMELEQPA
GTAGATTTCAGTATCGATTAGTGCTAG: 0.815 z-score
TTAGAACTGGGGTTTCGCTTAGTGCTA: 3.42 z-score
CTTTCCTTTGCTTTCTCCCAGTGCTAG: 2.5 z-score
TCACCTTTCTCTCTGTGACTGTGCTAG: 1.12 z-score
TTAGTTTTCCTTTCCCTTTAGTGCTAG: 4.62 z-score
TGTGCTTTCCTCGTGATGCTGTGCTAG: 0.591 z-score
TCAAAGATTCCTCTCACACTGTGCTAG: 0.434 z-score
TAAGGTATCGGTATCGGTTAGTGCTAG: 2.96 z-score
AAAATTTTAACCCTTATTCTGTGCTAG: 0.141 z-score
GACGGTATCCGTCTCGGGACGTGCTAG: -0.102 z-score
GACGGTTTCGACTATCGGGAAGTGCTA: 6.39 z-score
GTGATGTGAGGGGAGAGGGAGTGCTAG: 0.0588 z-score
TTAGGTCTCGGTATCGGTTGGTGCTAG: 3.55 z-score
GACGATATCAGTCTCGAGACGTGCTAG: 0.292 z-score
GACGAACTGGGGTAGCGAGACGTGCTA: -0.798 z-score
GACGGTATTGACTATCGGGACGTGCTA: -0.16 z-score
AGAATTTTCATTAACTGTTAGTGCTAG: 0.00524 z-score
GACGGTCTCGACACTGGGGACGTGCTA: -0.089 z-score
TTAGGACTGGACTTTCGGGTAGTGCTA: 0.0727 z-score

Set 4
Target: RNA binding protein fox-1 homolog 2, RRM domain, GST-SBP tag (RBFOX2, Homo sapiens, UniProt O43251-10, residues 100-194)
Method: RNA Bind-n-Seq
Form: RNA
Sample: in vitro
Tested at: 365 nM
Setting: natural RNA segment, single round, ends assumed
Relative to: no-protein control
Reading: higher = stronger binding
Endpoint: RBNS enrichment (R)
All sequences stand within: GGGAGUUCUACAGUCCGACGAUC … UGGAAUUCUCGGGUGCCAA
Construct (chain): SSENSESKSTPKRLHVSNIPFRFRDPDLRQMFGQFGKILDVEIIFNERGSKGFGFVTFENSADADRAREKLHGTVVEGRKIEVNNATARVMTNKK
GAAUCCAGGGGCCUGCACUGAUCGGGUAGCAGCUACUUUGCCUGUCCUUGGCCGUCUCCCUCAGCUCUGCCUGGGCUCCGAGGGAGAUGGAAGUCCGUCAGGGAACAGGU: 0.536
CGAACUGCCUGUUCUCUAAACCUCAAGGAGAAAAACUGGAGUUAAUGGGUAAUAAGGUGCAAAAUAAAGGGGUAAGGGGGGAGUUUUCUAUCUGUCCUGUUCUCUGUUAU: 0.294
GGCUGGGAGCCUUAGAGAAACGCAAGCUCACGCCUUCAUAAAUAUGCAGUUUCCUGCUUUCUGCCCUGAACUUUGAAAUGCCUGUGUAAGGAAUCAAAAUGAACAUGAUC: 0.647
UUUUCUAUAAGCACACUGACCUUAUGGGGCCAUGUUAUUUUUAUAUGAUAAACGUCUUCCAUAGAACUUACUAUAGUCAAAUAACAUAAAAAAACUGACCUAUACAAGUG: 0.494
GGCCCUCCAGGCCAAGAGUCUCAGCUGGCCGAGAGUCCAGGCCUUGCCUCCCCCGACCGCCAUGGAGGGGGCAGCCCGGCACAGCUGCUGGGAGCCCUUGUGUGUCUGGU: 0.581
AAACACAAGCAAAACAACAAAAUUAAUAAUCUGACGGAGGGGAAUUCUAGAAUUAUAUGCUAAAUGCAUAUUUUAUGAUUUGCUGUAUUAACUGAUGAUAAAACUAAUGG: 1.08
UGAGGUGUCCAGAGGCGGCGGCAGCUGGCAGUGCCCUCAGCCCCCAAGUGUCCAGCCUGGCACUUCCCAUUCAGGCCACCUGCUUUGGGUCAACAGUUCCUUUGCCAGCA: 0.382
UCGCUUGGUAGGUGUAAGUAAUAGCAGCCCUUAGCCACGGAGUCUUUAUGUGGUUUAUUCCUGCAAGGUUGUUUUAAACUGAAAUAGAACUGCUAGUGUGAUUGGUUGAU: 1

Some of these lines once more (set 4):
GAAUCCAGGGGCCUGCACUGAUCGGGUAGCAGCUACUUUGCCUGUCCUUGGCCGUCUCCCUCAGCUCUGCCUGGGCUCCGAGGGAGAUGGAAGUCCGUCAGGGAACAGGU: 0.536
CGAACUGCCUGUUCUCUAAACCUCAAGGAGAAAAACUGGAGUUAAUGGGUAAUAAGGUGCAAAAUAAAGGGGUAAGGGGGGAGUUUUCUAUCUGUCCUGUUCUCUGUUAU: 0.294
GGCUGGGAGCCUUAGAGAAACGCAAGCUCACGCCUUCAUAAAUAUGCAGUUUCCUGCUUUCUGCCCUGAACUUUGAAAUGCCUGUGUAAGGAAUCAAAAUGAACAUGAUC: 0.647
UUUUCUAUAAGCACACUGACCUUAUGGGGCCAUGUUAUUUUUAUAUGAUAAACGUCUUCCAUAGAACUUACUAUAGUCAAAUAACAUAAAAAAACUGACCUAUACAAGUG: 0.494
GGCCCUCCAGGCCAAGAGUCUCAGCUGGCCGAGAGUCCAGGCCUUGCCUCCCCCGACCGCCAUGGAGGGGGCAGCCCGGCACAGCUGCUGGGAGCCCUUGUGUGUCUGGU: 0.581
AAACACAAGCAAAACAACAAAAUUAAUAAUCUGACGGAGGGGAAUUCUAGAAUUAUAUGCUAAAUGCAUAUUUUAUGAUUUGCUGUAUUAACUGAUGAUAAAACUAAUGG: 1.08
